# Experimental data of several laboratories.
# Each numbered part is a random draw from the data of one study; scales do not carry over between parts. ± marks the error that the study gave.

# Sample 1
# Organism: SARS-CoV-2 Wuhan spike VSV pseudovirus
# Observed: pseudovirus entry
# Tested at: concentration not given
SMILES,inhibition [%]
COc1ccc(Cl)cc1NC(=O)Cn1c(C(=O)c2cccc(F)c2)nc2ccccc21,39
Cc1nn(C)c(C)c1CNS(=O)(=O)c1ccc(C(C)C)cc1,39
Cc1nc(-c2ccc(C)c(S(=O)(=O)N3CCC(C(=O)NC4CCCc5ccccc54)CC3)c2)no1 (stereo not drawn),36
NC(=O)c1snc(C(=O)N(Cc2ccccc2)C2CCN(Cc3ccccc3)CC2)c1N,42
Cc1cnc(C)c(-c2ccc3c(c2)CC(CNC(=O)CSc2ccccn2)O3)n1 (stereo not drawn),44
Cc1ccc(C(=O)N2CCN(S(=O)(=O)c3ccc4c(c3)NC(=O)C(C)O4)CC2)s1 (stereo not drawn),38
COc1ccc(-c2ccc(Nc3ccc(C)c(C)c3)nn2)cc1S(=O)(=O)N1CCCC1,42
Cc1ccc(C(=O)NCCC2=CCCN(C3C=CCCC3)C2)cc1F (stereo not drawn),38
Cc1oc(-c2cccs2)nc1CN(C)C1CCCc2ccccc21 (stereo not drawn),38
CCn1nc(C)c([N+](=O)[O-])c1C(=O)NCC(=O)c1ccc(Cl)cc1,42
CCOC(=O)C1(Cc2ccccc2C(F)(F)F)CCN(C(=O)Cc2nonc2C)CC1,44
Cc1oc2ncnc(N3CCC(C(=O)NC4CCCCCCC4)CC3)c2c1C,42

# Mixed results
# Matrix protein 2 V27A: Matrix protein 2 (Influenza A virus, UniProt P0DOF5, V27A)
# rep papain-like protease: Replicase polyprotein 1ab, papain-like protease (rep, Severe acute respiratory syndrome coronavirus 2, UniProt P0DTD1)
# rep nsp14: Replicase polyprotein 1ab, nsp14 (rep, Severe acute respiratory syndrome coronavirus 2, UniProt P0DTD1)
# rep nsp12 RdRp: Replicase polyprotein 1ab, nsp12 RdRp (rep, Severe acute respiratory syndrome coronavirus 2, UniProt P0DTD1)
SMILES,target or system,assay,test system,conditions,how to read,endpoint,value
Cl.NCC12C3CCC4C3C3C(CCC31)C42,Matrix protein 2 V27A,,,"concentration not given, pH 5.5, cell-based",,inhibition,0%
CCOC(=O)c1cc2cc(-c3cc(C(=O)NCc4ccc(C(=O)O)cc4)nn3C)ccc2[nH]1,rep papain-like protease,,,"concentration not given, C111S mutant",reference: positive control,activity,25.1%
O=C(NC1CCN(c2ncnc3[nH]cnc23)CC1)c1cccc(S(=O)(=O)N2CCC2)c1,rep nsp14,enzyme activity,SARS-CoV-2,,,Hill slope,12.4
CCC(CC)[C@H](NC(C)=O)[C@@H]1[C@H](O)[C@@H](C(=O)O)C[C@H]1N=C(N)N,"neuraminidase (Influenza B virus, UniProt A0A1S5RAG6, I221N)",,,,,IC50,359 ± 31.2 nM
Cc1ccc(Nc2nccc(N(C)c3ccc4c(C)n(C)nc4c3)n2)cc1S(N)(=O)=O,rep nsp12 RdRp,"binding, biolayer interferometry",,50 µM,,BLI response,0.06 nm
O=c1[nH]cnc2c([C@@H]3N[C@H](CO)[C@@H](O)[C@H]3O)c[nH]c12,SARS-CoV-2,viral replication,"Vero C1008, Omicron BA.1","48 h, reduction of infectious virus",,EC90,2020 ± 70 nM
N#C[C@@]1(n2ccc(N)nc2=O)O[C@H](CO)[C@@H](O)[C@H]1O,SARS-CoV-2 Delta,viral replication,Calu-3,,,EC90,4900 ± 4100 nM
O=C(NC1CCN(c2ncnc3[nH]cnc23)CC1)c1cccc(S(=O)(=O)N2CCCCC2)c1,rep nsp14,enzyme activity,SARS-CoV-2,,,Hill slope,1.37
CCC(CC)COC(=O)[C@H](C)N[P@](=O)(OC[C@H]1O[C@@](C#N)(c2ccc3c(N)ncnn23)[C@H](O)[C@@H]1O)Oc1ccccc1,SARS-CoV-2,viral replication,"Vero, Alpha",,,EC50,200 ± 200 nM
COc1cc(C(=O)NS(=O)(=O)c2ccccc2C)ccc1Cc1cn(C)c2ccc(NC(=O)OC3CCCC3)cc12,rep nsp12 RdRp,"binding, biolayer interferometry",,50 µM,,BLI response,0.31 nm
CN1CCc2nc(C(=O)N[C@@H]3C[C@@H](C(=O)N(C)C)CC[C@@H]3NC(=O)C(=O)Nc3ccc(Cl)cn3)sc2C1.Cc1ccc(S(=O)(=O)O)cc1.O,rep papain-like protease,,,"concentration not given, C111S mutant",reference: positive control,activity,21.6%
Cl.NC12C3CCC4C3C3C(CCC31)C42,Matrix protein 2 V27A,,,"concentration not given, pH 5.5, cell-based",,inhibition,0%

# A few entries again (mixed results):
SMILES,target or system,assay,test system,conditions,how to read,endpoint,value
Cc1ccc(Nc2nccc(N(C)c3ccc4c(C)n(C)nc4c3)n2)cc1S(N)(=O)=O,rep nsp12 RdRp,"binding, biolayer interferometry",,50 µM,,BLI response,0.06 nm
O=c1[nH]cnc2c([C@@H]3N[C@H](CO)[C@@H](O)[C@H]3O)c[nH]c12,SARS-CoV-2,viral replication,"Vero C1008, Omicron BA.1","48 h, reduction of infectious virus",,EC90,2020 ± 70 nM
N#C[C@@]1(n2ccc(N)nc2=O)O[C@H](CO)[C@@H](O)[C@H]1O,SARS-CoV-2 Delta,viral replication,Calu-3,,,EC90,4900 ± 4100 nM
